# Published values from different studies.
# Numbers after ± are the reported error.
# Organism: Acinetobacter baumannii
Compound,test,test system,setting,endpoint,result
O=C(O)CN(CC(=O)O)CP(=O)(O)O,,NDM-2 producer,"32 µg/mL, added: meropenem",meropenem MIC,2 µg/mL
C[C@H](N)[C@@H](CCCCCCCCCCCCCCC(=O)CCCCCCC[C@@H](O)[C@@H](C)N)O[C@@H]1O[C@H](CO)[C@H](O)[C@H](O)[C@H]1O,resazurin,ATCC 19606,50 µM,growth inhibition,98 ± 0.07%
CC[C@H](C)[C@H](NC(=O)[C@H](CCCCN)NC(=O)[C@H](CCCCN)NC(=O)[C@H](Cc1ccccc1)NC(=O)[C@H](Cc1ccccc1)NC(=O)[C@H](CCCCN)NC(=O)[C@H](CCCCN)NC(=O)[C@H](Cc1ccccc1)NC(=O)[C@H](CCCNC(=N)N)NC(=O)[C@@H](N)CCCCN)C(=O)N[C@@H](CCCCN)C(=O)N[C@@H](CCCCN)C(=O)N[C@@H](CO)C(=O)N[C@H](C(=O)N[C@@H](CCCCN)C(=O)N[C@@H](CCCCN)C(=O)N[C@@H](CCCNC(=N)N)C(=O)N[C@H](C(=O)N[C@@H](CCCCN)C(=O)N[C@@H](CCCCN)C(=O)N[C@@H](CC(C)C)C(=O)N[C@@H](Cc1ccccc1)C(=O)N[C@@H](CCCCN)C(=O)N[C@@H](CCCCN)C(=O)N1CCC[C@H]1C(=O)N[C@@H](CCCNC(=N)N)C(=O)N[C@H](C(=O)N[C@H](C(=O)N1CCC[C@H]1C(=O)N[C@H](C(=O)N[C@@H](CO)C(=O)N[C@H](C(=O)N1CCC[C@H]1C(=O)N[C@@H](Cc1ccccc1)C(=O)O)[C@@H](C)CC)[C@@H](C)CC)[C@@H](C)CC)C(C)C)C(C)C)C(C)C,,"A1, clinical isolate","20 h, 37 °C",MBC,8 µg/mL
CCc1cc(CCN)nc(-c2nc(=O)c3ccccc3s2)c1,"cell growth, inhibitor",NCTC 13424 XDR,5% CO2,EC50,> 100 µM
CC[C@H](C)[C@H](NC(=O)[C@H](CC(C)C)NC(=O)[C@H](CC(=O)O)NC(=O)[C@H](CCCNC(=N)N)NC(=O)[C@H](Cc1c[nH]c2ccccc12)NC(=O)[C@@H](N)CC(C)C)C(=O)N[C@@H](CS)C(=O)N[C@@H](CC(C)C)C(=O)N[C@@H](CS)C(=O)N[C@@H](CCCNC(=N)N)C(=O)N[C@@H](CC(N)=O)C(=O)N[C@@H](CCCNC(=N)N)C(=O)N[C@@H](CCCNC(=N)N)C(=O)N[C@@H](CS)C(=O)N[C@@H](CC(N)=O)C(=O)N[C@@H](CCCNC(=N)N)C(=O)NCC(=O)N[C@@H](CCC(N)=O)C(=O)N[C@@H](CC(C)C)C(=O)N[C@@H](Cc1ccccc1)C(=O)N1CCC[C@H]1C(=O)NCC(=O)N[C@@H](Cc1c[nH]c2ccccc12)C(=O)N[C@@H](CS)C(=O)N1CCC[C@H]1C(=O)NCC(=O)N[C@@H](Cc1c[nH]c2ccccc12)C(=O)N[C@@H](Cc1c[nH]c2ccccc12)C(=O)N[C@@H](CC(C)C)C(=O)N[C@@H](CCCNC(=N)N)C(=O)N[C@@H](CS)C(=O)N[C@@H](CS)C(=O)N[C@@H](CCCNC(=N)N)C(=O)N[C@@H](CCCNC(=N)N)C(N)=O,colony count,"carbapenem-resistant, PBS","20 µg/mL, 2 h",bactericidal rate,93.8%
Oc1c(Br)cc(Br)c2nc3cc(F)c(F)cc3nc12,microbial growth,19606,,IC50,> 100 µM
CCc1cc(CCC(=O)O)nc(-c2nc(=O)c3ccc(F)cc3s2)c1,growth inhibition,"AR Bank 0288, XDR",5% CO2,EC50,> 100 µM
C[C@@H](N)[C@H](O)CCCCCCCC(=O)CCCCCCCCCCCCCC[C@@H](O[C@@H]1O[C@H](CO)[C@H](O)[C@H](O)[C@H]1O)[C@H](N)CO,resazurin,ATCC 19606,50 µM,growth inhibition,97 ± 0.25%
CCc1cc(CCN)nc(-c2nc(=O)c3ccc(F)cc3s2)c1,"cell growth, inhibitor",NCTC 13424 XDR,5% CO2,EC50,> 100 µM
Oc1c(Br)cc(Br)c2nc3cc(Cl)ccc3nc12,microbial growth,19606,,IC50,56.7 µM

# Some of these lines once more:
Compound,test,test system,setting,endpoint,result
CCc1cc(CCN)nc(-c2nc(=O)c3ccccc3s2)c1,"cell growth, inhibitor",NCTC 13424 XDR,5% CO2,EC50,> 100 µM
